Measured values pooled from the literature.
Every numbered part comes from another study and shows a few of its results, in no order.

Study 1 — method: protein-binding microarray; molecule type: double-stranded DNA, one strand shown; sample: in vitro; tested at: 2200 nM top; setting: 60-bp whole probe; added: salmon DNA 0.4 mg/ml; baseline: random background probes; reading: higher = stronger binding; endpoint: fitted relative affinity; all sequences stand within: GCCTAGCAC … GTCTTGATTCGCTTGACGCTGCTG
Target: Interferon regulatory factor 7, full length, phosphomimetic (IRF7, Homo sapiens, UniProt Q92985, residues 1-503, S471D/S472D/S475D/S476D/S477D/S483D/S484D/S487D)
UniProt Q92985, sequence (whole entry, unmodified, looked up): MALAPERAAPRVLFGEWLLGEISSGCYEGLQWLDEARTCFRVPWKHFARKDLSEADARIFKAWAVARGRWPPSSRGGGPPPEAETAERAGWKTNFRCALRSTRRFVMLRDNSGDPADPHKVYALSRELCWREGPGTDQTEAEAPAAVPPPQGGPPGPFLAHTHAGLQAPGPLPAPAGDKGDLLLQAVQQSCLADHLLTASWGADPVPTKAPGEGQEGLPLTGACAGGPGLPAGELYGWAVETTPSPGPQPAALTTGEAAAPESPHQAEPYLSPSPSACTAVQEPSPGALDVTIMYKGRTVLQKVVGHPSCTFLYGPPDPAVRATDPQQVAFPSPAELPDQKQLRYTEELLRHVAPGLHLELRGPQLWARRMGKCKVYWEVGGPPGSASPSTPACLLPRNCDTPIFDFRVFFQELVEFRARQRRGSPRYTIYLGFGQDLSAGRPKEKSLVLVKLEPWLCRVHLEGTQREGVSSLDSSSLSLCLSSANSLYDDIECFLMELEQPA
TCATTTATGTCCTGTCTAACTGTGCTA: 1.77 z-score
TCAGCTTTACTGATGGCACTGTGCTAG: 0.29 z-score
GACGAACTCGGGTTTCGAGACGTGCTA: 1.72 z-score
GACGGACAGGGACTGGGGACGTGCTAG: -0.879 z-score
GACGGTTTCGGTTATCGGGACGTGCTA: 7.52 z-score
GGGCCTTGCATGTTTTTGACAGTGCTA: -0.768 z-score
TTAGGTATTGGTATCGGTTAGTGCTAG: 0.783 z-score
TCACCTTTACTTTCTTTACTGTGCTAG: 2.78 z-score
CGTCATTTCACAGTTAACCAGTGCTAG: 1.31 z-score
TCACCTCTCTGTCCCCCACTGTGCTAG: 1.43 z-score
GGCTTTGACTCTTTCTGTCAGTGCTAG: 0.61 z-score
TTAGATTTCGGGTGTCGATTAGTGCTA: 2.02 z-score
AACGATATCAGTCTCGAGACGTGCTAG: 0.241 z-score
TCAAAACTAAGTTTATTACTGTGCTAG: -0.247 z-score
GGTATTCGGAACTTTTAGCTGTGCTAG: 0.311 z-score
GACGATTTCGGGTAACGAGACGTGCTA: 2.01 z-score
TCATGTCTCCCCCATCTTACTGTGCTA: 1.06 z-score
TTGTTTCTAATATTCTGCTTGTGCTAG: 1.68 z-score
GACGGACTGGGACTGGGAACGTGCTAG: -0.793 z-score
GGATGTGTCTTAAATAGGGCAGTGCTA: -0.62 z-score
GACGGTCTCGGTTCCGGGACGTGCTAG: 0.815 z-score
ATAGGACTGGGTCTCGGTTAGTGCTAG: 0.0908 z-score
TTAGGCATCGGACTGGGTTAGTGCTAG: -0.547 z-score
GACGAACTGAGTTTCGAGGCGTGCTAG: 1.42 z-score

Study 2 — method: RNA Bind-n-Seq; molecule type: RNA; sample: in vitro; tested at: 365 nM; baseline: no-protein control; reading: higher = stronger binding; endpoint: RBNS enrichment (R)
Target: RNA binding protein fox-1 homolog 2, RRM domain, GST-SBP tag (RBFOX2, Homo sapiens, UniProt O43251-10, residues 100-194)
Setting: natural RNA segment, single round, ends assumed
All sequences stand within: GGGAGUUCUACAGUCCGACGAUC … UGGAAUUCUCGGGUGCCAA
Target sequence (chain): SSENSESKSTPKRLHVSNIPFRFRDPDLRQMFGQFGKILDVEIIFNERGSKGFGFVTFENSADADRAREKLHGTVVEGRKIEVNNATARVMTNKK
CGGUUGUGUUUGGUGCUGACACUCUGAUCCCGAAGCCAGGGAGCCCCAAGGGGCUGCAUGACCCUGGGGUGCCCCACACAGUUCAGCCCUGCCUGGCAGGGACGCCAGUA: 8.38
UUUCUUUAGCUUAAUUUUGUGUGUGCACUAACAUUCCCUGGUUUUUGUGUGAUCAUUCCGAGUGUUGCUGCAAGAUUACAGUGGACGUGAUCUUUUAGCAUGUGCUUUUA: 2.69
UAAAUUUGUUGCUAAUCUCUGAUAAUGAAGAUUCUUACUCUGAUUCUCAGCUGAGCUGUGAGGGCUUCCAGGGAAAAUGGAACAAAAUGGUGUUCUUAGGUAAUGGGUUG: 0.735
UAUAGUACUUGAAAUUCUUACCAGAAAAUUACUUUGGAGUUUUGAAGCCUUUAUUAAUACUACUUUUAAAGAAGCAGUUGUUUUAUUGUCAAUGUUUUUUUUCCCCCAAG: 0.599
UAAUUCUGAUCCUCUACCUGUAGGAGGACUUUGGUGUGAUCAUCCUUCUCCCAGGGCCCGGCUACCCAGGGAGGAGGAGUCUGGUGUAGCCAACAUUCCUGCCCUAACCC: 0.215
AACUGCUGUUCUGUUUCGUUGAUUGCAUCGAGCAUGUUUCUAUAUAAGGUGGGUACUCUGAGCAGCCUGCCCUGCCUCUCGUGCUUUGAAAUUCUUUUGGUAGAAAUCCC: 0.758
UUACCACUGUCAGAUUGGAAGUGACCGAAGCAGGGGAUGAAGAGAAAGCUCACAUUCUAAGUAGAGAAGCAGGAAAAAUUGUUCAAAAGACAAACACCCUGUUGAACUGA: 0.306
UUCCGUGGGGGCACCUGACAAUGACCCGGGUGGAGAUGGGGCAUGGAGGAGUAGGAAGACCCAGCCCUAUUUGACUGGGGAGAGGAGGAUCUGGAGUCCUUCAUGCCCAG: 1.65
AGGGGCAUCGGGCCAGGGAAAACCUCGGAUUAGCAAGCAAUAAAAACAUGACCUCACUCUUCCUCAAAGGAGCCCCUGGUCUUCCCUGUGUGACUCAGUUCUUUCCAUCU: 0.339
UCGGCCUUUGAUCUGGCCAAGUCUUAGAGAAUGUUGUAGAUGGGGGUUAAGAGAACCAUUUAAAGUAUUUUGUUCAUUAAAUGCCUCUUUCCAAAAAUGGAAGAUCCAAA: 0.748
CCCAAGCAAGGCGUCACCGAGGAGGAAGAAAGGGGGUACUCUCAUGUCUGCUUACUCACAAAAACAGAUAGUGGCUUAGGAAUUGUGGUUAUAUCCAGUUAUACAGGCGA: 0.341
GAAUGUGCUCAUAGACCAUCAGACGCUUGUCGAAGGCAGGUCCUAGUCAUGUAAUUGCACAGGACAAGGAGGUCAGCGUGUGUGAUGGCAGCAUGCUGUGCCGGCACAUC: 14.6

Study 3 — method: competition protein-binding microarray; molecule type: double-stranded DNA, one strand shown; sample: in vitro; tested at: 2 µM; added: Pho4 competitor, 0.05 µM; reading: higher = stronger binding; endpoint: fluorescence intensity; all sequences stand within: … GTCTTGATTCGCTTGACGCTGCTG
Target: Centromere-binding protein 1, full length, His-tagged (CBF1, Saccharomyces cerevisiae, UniProt P17106, residues 1-351)
UniProt P17106, sequence (whole entry, looked up): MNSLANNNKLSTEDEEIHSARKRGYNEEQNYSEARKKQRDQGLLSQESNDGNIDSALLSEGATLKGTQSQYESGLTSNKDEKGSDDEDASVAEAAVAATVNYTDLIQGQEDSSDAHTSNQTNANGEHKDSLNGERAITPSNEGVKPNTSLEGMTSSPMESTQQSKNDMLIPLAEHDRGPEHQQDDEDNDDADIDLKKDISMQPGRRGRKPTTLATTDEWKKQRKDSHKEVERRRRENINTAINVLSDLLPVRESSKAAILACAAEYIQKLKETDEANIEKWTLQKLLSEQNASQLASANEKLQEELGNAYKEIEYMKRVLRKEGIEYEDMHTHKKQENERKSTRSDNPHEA
Setting: whole 60-bp probe, lowest competitor level
CTTTCCCGATCTTGACGTGTGGGTGTAGCACATTTG: 81.4 a.u.
CAATAAATCTTGTTCCTCGTGGCCGAATGGTTACGG: 95.6 a.u.
AGGAACTTGAGCGTAAACGTGGACGTCTGCCTGTCG: 64.5 a.u.
CATTTGAAGGTTCGGCACGTGCTTTACCCCAAAGGT: 2110 a.u.
GTAATTTCAATAGCTCGCGTGGCCGAATGGCAACGC: 85.7 a.u.
AAATTACTAAGTTAACACGTGTTTTACCCCGTATGA: 1630 a.u.
AAATTACTAAGTTGGATTGTGGGTGACGCCGTATGA: 60.3 a.u.
TGCGCAACAACTTGCCCAGTGGGTGTATGTCTAGAA: 53.9 a.u.
CTATAGGATAACCATCACGGCTAAAACGGTCGAATG: 74.9 a.u.
AGCAGATGGTAATCGCACGTTGAAAATGCTGAATAT: 106 a.u.
TCGGCTATCTGTGAGTACGTGCGGACTTCCAACGTC: 72 a.u.
AAATTACTAAGTTGTACCGTGGGTGACGCCGTATGA: 70.3 a.u.
GTGTATCTTTTCTTTGCTAATTATACGCTGACATGA: 81.8 a.u.
CTTCTGTAAATTTGTGTAGTGGGTGGACGCGCCCCG: 105 a.u.
CTTTCCCGATCTTGTCACCGGACTTTAGCACATTTG: 88.5 a.u.
ACCGCGGACGACGGCCACGCAGGCAAAGAATGCTTT: 53.1 a.u.
AAGGGATGGTGGCGTCACATGGGTGGTCCAAAGCAA: 386 a.u.
TGAGTTAAGTGTAGGCATGTGACTCACTTCTGGTAA: 1320 a.u.
CATACCCAACCTTGGAGGGTGGGTGAAGATATTTGT: 63.9 a.u.
GTATTCAGAGACCATCACGTGATGGAAACGCGATTA: 9180 a.u.
ACTTGGCCCTATTCATCCGTGACGGGATCATATCTT: 78.6 a.u.
CACATAACCACTTGTCACCTGTGCATTCTTACTTTT: 142 a.u.
GTCTTGTCTCATTTTCACGTGATATTCCCCACTTCA: 2400 a.u.

Study 4 — method: protein binding microarray; molecule type: double-stranded DNA, one strand shown; sample: in vitro; tested at: not given; baseline: not given; reading: higher = stronger binding; endpoint: E-score
Target: Histone acetyltransferase KAT6A, winged helix 2, GST fusion (KAT6A, Homo sapiens, UniProt Q92794, residues 85-181)
Setting: 8-mer, flanks averaged, mean of 2 arrays, mostly near background
Residues (chain): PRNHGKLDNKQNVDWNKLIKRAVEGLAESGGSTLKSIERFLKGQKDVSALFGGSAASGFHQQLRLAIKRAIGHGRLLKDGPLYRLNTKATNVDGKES
ACTTCTTG: -0.0752
GCTGTCAC: -0.0106
GTTGCGTA: 0.0843
CTACCGAA: -0.0445
GGATGGCA: 0.0724
AAGGGTCC: 0.0233
AGGCAGAA: 0.0681
GACGCCTC: 0.0117
AACACTAT: 0.0637
CGTAGCAA: 0.0191
ATCATGTG: -0.191
CTTGAGTA: 0.0316
CCCAAAGG: 0.0466
CATAGGAG: 0.00624
TCATAGGA: -0.166
AGGTCTCG: 0.0619
TCGCATCA: 0.0922
GACACCCA: -0.0693
AGAGTTCA: -0.108
TGTGACAA: -0.00587
AACTTGCT: -0.127
AACAGGAG: -0.206
GGTACCAC: 0.11
CCGATCAA: 0.0972

Repeated from above (study 2):
GAAUGUGCUCAUAGACCAUCAGACGCUUGUCGAAGGCAGGUCCUAGUCAUGUAAUUGCACAGGACAAGGAGGUCAGCGUGUGUGAUGGCAGCAUGCUGUGCCGGCACAUC: 14.6
AGGGGCAUCGGGCCAGGGAAAACCUCGGAUUAGCAAGCAAUAAAAACAUGACCUCACUCUUCCUCAAAGGAGCCCCUGGUCUUCCCUGUGUGACUCAGUUCUUUCCAUCU: 0.339
CCCAAGCAAGGCGUCACCGAGGAGGAAGAAAGGGGGUACUCUCAUGUCUGCUUACUCACAAAAACAGAUAGUGGCUUAGGAAUUGUGGUUAUAUCCAGUUAUACAGGCGA: 0.341
UCGGCCUUUGAUCUGGCCAAGUCUUAGAGAAUGUUGUAGAUGGGGGUUAAGAGAACCAUUUAAAGUAUUUUGUUCAUUAAAUGCCUCUUUCCAAAAAUGGAAGAUCCAAA: 0.748
CGGUUGUGUUUGGUGCUGACACUCUGAUCCCGAAGCCAGGGAGCCCCAAGGGGCUGCAUGACCCUGGGGUGCCCCACACAGUUCAGCCCUGCCUGGCAGGGACGCCAGUA: 8.38
UUCCGUGGGGGCACCUGACAAUGACCCGGGUGGAGAUGGGGCAUGGAGGAGUAGGAAGACCCAGCCCUAUUUGACUGGGGAGAGGAGGAUCUGGAGUCCUUCAUGCCCAG: 1.65
UUUCUUUAGCUUAAUUUUGUGUGUGCACUAACAUUCCCUGGUUUUUGUGUGAUCAUUCCGAGUGUUGCUGCAAGAUUACAGUGGACGUGAUCUUUUAGCAUGUGCUUUUA: 2.69
AACUGCUGUUCUGUUUCGUUGAUUGCAUCGAGCAUGUUUCUAUAUAAGGUGGGUACUCUGAGCAGCCUGCCCUGCCUCUCGUGCUUUGAAAUUCUUUUGGUAGAAAUCCC: 0.758
UUACCACUGUCAGAUUGGAAGUGACCGAAGCAGGGGAUGAAGAGAAAGCUCACAUUCUAAGUAGAGAAGCAGGAAAAAUUGUUCAAAAGACAAACACCCUGUUGAACUGA: 0.306
UAUAGUACUUGAAAUUCUUACCAGAAAAUUACUUUGGAGUUUUGAAGCCUUUAUUAAUACUACUUUUAAAGAAGCAGUUGUUUUAUUGUCAAUGUUUUUUUUCCCCCAAG: 0.599
UAAUUCUGAUCCUCUACCUGUAGGAGGACUUUGGUGUGAUCAUCCUUCUCCCAGGGCCCGGCUACCCAGGGAGGAGGAGUCUGGUGUAGCCAACAUUCCUGCCCUAACCC: 0.215
